Assay results from different studies.
Compare with care: the assays were run in different laboratories. “And” joins repeats or separate records; there may be more than shown. ± marks the error that the study gave.

For `N#Cc1ccc2c(-c3ccncc3)c(-c3ccc(F)cc3)nn2c1`, “log2 fold change” read 0.445 (kinase binding, competitor, MIB/MS competition, measured: IRE1; Candida albicans cell lysate; 100 nM; baseline: DMSO).
For `C[C@H]1O[C@@H](O[C@H]2CC[C@@]3(C)[C@@H](CC[C@]4(C)[C@@H]3C=C[C@]35OC[C@@]6(CCC(C)(C)C[C@H]63)[C@@H](O)C[C@]54C)[C@]2(C)CO)[C@H](O)[C@@H](O[C@@H]2O[C@H](CO)[C@@H](O)[C@H](O)[C@H]2O)[C@H]1O`, the protein level was 1.45 and 1.13 and 0.49 (Western blot, measured: Mtor; mice, normal control diet, liver; dose not given, high dose, unit not given; baseline: β-actin).
`CCCCC1(CCCC)CN(c2ccccc2)c2cc(SC)c(OCC(=O)N[C@@H](C(=O)NCC(=O)O)c3ccccc3)cc2S(=O)(=O)C1` gave a plasma C4 of 72.6 ng/mL (measured: 7α-hydroxy-4-cholesten-3-one; human, plasma; 5 mg once daily, day 9).
For `C[C@H]1C[C@H]2CSC(N)=N[C@@]2(c2nc(NC(=O)c3ccc(OC(F)F)cn3)cs2)CO1`, “percent change from baseline” read -51.4% (measured: Aβx-40; healthy adults, plasma; 15 mg once daily, day 14; baseline: placebo).
Under “peak amplitude change”, `C[C@H](Oc1ccc(Br)cc1-c1ccon1)C(=O)O` is recorded as -12.6% (muscle velocity recovery cycles; human, tibialis anterior muscle; 400 mg twice daily, multiple doses, frequency ramp, last response at 30 Hz; baseline: placebo).
For `CC(C)NCC(O)c1ccc(O)c(O)c1` (stereo not shown), the sarcomere length was 1.6 µm (ventricular cardiomyocytes, C57BL/6 mouse; dose not given, 0.808 s).
`C[C@@H](O)CCOC(=O)C[C@@H](C)O` gave a metabolite level of 3.38 ± 0.54 µmol/L (measured: C2 acylcarnitine; human, plasma; 60 min, log2-transformed values).
`N#Cc1ccc2c(c1)[C@H]1CCCN(C(=O)c3ccc4[nH]cnc4c3)[C@H]1C2`: “change from baseline” -34.9 mg/dL (measured: Triglycerides; human; 80 mg once daily, day 28, adjusted mean).
`C[C@@H](NC(=O)N1C(=O)[C@H](Cc2ccnc(N)c2)[C@H]1C(=O)O)C1CCCCC1` gave an ACT AUEC of 16300 h·s (human; iv infusion, 0.3 mg/kg/h, 24 h).
For `N#CCC1CCN(c2nc(Nc3ccc(N4CCC(O)CC4)cc3)c3c(=O)[nH]ncc3n2)CC1`, “fold change from baseline” read -1.2 (Olink multiplex, measured: CD163; human, serum; 20 mg, day 15; baseline: baseline).
For `OC(CCN1CCCCC1)(c1ccccc1)C1CC2C=CC1C2` (stereo not shown), “EEG theta power, O2 Pz” read 4.7 µV² (resting-state EEG; healthy elderly humans; oral, 4 mg, eyes open, LS mean).
`Cc1n[nH]c2ccc(-c3cc(OC[C@@H](N)Cc4ccccc4)cnc3-c3ccoc3)cc12`: “log2 fold change” -2.8 (kinase binding, competitor, MIB/MS competition, measured: YAK1; Candida albicans cell lysate; 10 µM; baseline: DMSO).
With `O=C(O)CNC(=O)Cc1ccccc1` the sarcomere length was 1.72 µm (ventricular cardiomyocytes, C57BL/6 mouse; dose not given, 0.712 s).
With `Cc1cc(Nc2ccc(S(F)(F)(F)(F)F)cc2)n2nc(C(C)(F)F)nc2n1` the DHO concentration was 6.16 ± 0.0764 µM (measured: dihydroorotate; female CD-1 mice, pooled urine; oral, 300 mg/kg daily, 0-8 h after dose 1).
`N#Cc1ccn2c(-c3ccncc3)c(-c3ccc(F)cc3)nc2c1` — result for “log2 fold change”: 0.41 (kinase binding, competitor, MIB/MS competition, measured: YAK1; Candida albicans cell lysate; 100 nM; baseline: DMSO).
The blood ketones of `COc1ccccc1[C@H](Cn1c(=O)n(C(C)(C)C(=O)O)c(=O)c2c(C)c(-c3ncco3)sc21)OC1CCOCC1` is reported as 0.17 ± 0.048 mmol/L (human; 50 mg, post-treatment).
The percent change of `NC(=O)c1cnc2[nH]ccc2c1N[C@@H]1[C@@H]2CC3C[C@H]1C[C@@](O)(C3)C2` is reported as -0.52% (CD8+ CD28+ naive T cells, flow cytometry; Caucasian humans, peripheral blood; 60 mg single dose; baseline: baseline).
With `CN[C@@H]1COc2c(S(=O)(=O)NC(=O)Nc3c4c(cc5c3CCC5)CCC4)cnn2C1` the inhibition was 6.3% (measured: IL-1β; human participants, whole blood ex vivo; 150 mg single dose, 72 h, with: LPS/ATP; baseline: baseline).
The hematocrit of `Cc1cnc(Nc2ccc(OCCN3CCCC3)cc2)nc1Nc1cccc(S(=O)(=O)NC(C)(C)C)c1` is reported as 44.2% and 43.6% and 48.2% and 46.3% and 49.4% and 48.3% (BALB/c mice rhEPO-induced polycythemia; 120 mg/kg).

Excerpt of the above:
`Cc1n[nH]c2ccc(-c3cc(OC[C@@H](N)Cc4ccccc4)cnc3-c3ccoc3)cc12`: “log2 fold change” -2.8 (kinase binding, competitor, MIB/MS competition, measured: YAK1; Candida albicans cell lysate; 10 µM; baseline: DMSO).
With `O=C(O)CNC(=O)Cc1ccccc1` the sarcomere length was 1.72 µm (ventricular cardiomyocytes, C57BL/6 mouse; dose not given, 0.712 s).
